{"data": "Results pooled from the literature", "note": "Every numbered part comes from another study and shows a few of its results, in no order. “And” joins repeats or separate records; there may be more than shown.", "sequence of UniProt O14730 (whole entry, looked up)": "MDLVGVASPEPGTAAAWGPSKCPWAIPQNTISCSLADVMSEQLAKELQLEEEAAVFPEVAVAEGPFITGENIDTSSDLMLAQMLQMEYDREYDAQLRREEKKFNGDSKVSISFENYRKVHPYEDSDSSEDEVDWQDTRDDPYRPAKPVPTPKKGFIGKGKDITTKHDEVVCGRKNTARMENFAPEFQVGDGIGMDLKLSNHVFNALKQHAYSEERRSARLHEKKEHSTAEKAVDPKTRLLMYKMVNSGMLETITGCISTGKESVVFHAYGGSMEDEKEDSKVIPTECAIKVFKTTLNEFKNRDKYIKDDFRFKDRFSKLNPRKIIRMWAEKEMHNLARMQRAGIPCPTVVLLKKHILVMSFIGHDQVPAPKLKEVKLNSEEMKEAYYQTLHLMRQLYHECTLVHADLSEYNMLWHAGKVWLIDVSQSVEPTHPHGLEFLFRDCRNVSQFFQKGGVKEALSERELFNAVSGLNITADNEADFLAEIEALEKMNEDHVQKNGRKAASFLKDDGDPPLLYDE", "sequence of UniProt Q9BZL6 (whole entry, looked up)": "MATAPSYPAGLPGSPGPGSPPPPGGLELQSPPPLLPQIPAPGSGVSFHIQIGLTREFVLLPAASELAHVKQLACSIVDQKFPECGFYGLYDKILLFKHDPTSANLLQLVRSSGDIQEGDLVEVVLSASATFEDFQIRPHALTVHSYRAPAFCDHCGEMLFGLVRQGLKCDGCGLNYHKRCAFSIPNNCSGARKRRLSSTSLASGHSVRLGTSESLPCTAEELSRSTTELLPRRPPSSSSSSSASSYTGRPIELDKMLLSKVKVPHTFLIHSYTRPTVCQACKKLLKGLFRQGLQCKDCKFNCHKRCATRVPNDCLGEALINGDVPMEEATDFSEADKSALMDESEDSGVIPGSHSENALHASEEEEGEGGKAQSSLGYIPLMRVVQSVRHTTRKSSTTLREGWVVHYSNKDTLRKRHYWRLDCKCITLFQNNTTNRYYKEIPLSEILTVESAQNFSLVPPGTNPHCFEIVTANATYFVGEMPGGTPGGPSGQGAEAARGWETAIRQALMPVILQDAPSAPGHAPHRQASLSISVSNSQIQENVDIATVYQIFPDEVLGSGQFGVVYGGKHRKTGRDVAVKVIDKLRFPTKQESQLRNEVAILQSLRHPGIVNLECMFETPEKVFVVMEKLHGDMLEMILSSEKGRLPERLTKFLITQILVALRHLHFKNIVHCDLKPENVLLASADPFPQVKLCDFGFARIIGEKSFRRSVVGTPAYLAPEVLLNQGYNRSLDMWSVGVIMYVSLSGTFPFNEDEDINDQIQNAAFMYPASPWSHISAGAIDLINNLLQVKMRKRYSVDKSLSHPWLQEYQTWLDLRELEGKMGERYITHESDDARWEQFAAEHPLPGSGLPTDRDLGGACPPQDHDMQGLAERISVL", "sequence of UniProt Q96L34 (whole entry, looked up)": "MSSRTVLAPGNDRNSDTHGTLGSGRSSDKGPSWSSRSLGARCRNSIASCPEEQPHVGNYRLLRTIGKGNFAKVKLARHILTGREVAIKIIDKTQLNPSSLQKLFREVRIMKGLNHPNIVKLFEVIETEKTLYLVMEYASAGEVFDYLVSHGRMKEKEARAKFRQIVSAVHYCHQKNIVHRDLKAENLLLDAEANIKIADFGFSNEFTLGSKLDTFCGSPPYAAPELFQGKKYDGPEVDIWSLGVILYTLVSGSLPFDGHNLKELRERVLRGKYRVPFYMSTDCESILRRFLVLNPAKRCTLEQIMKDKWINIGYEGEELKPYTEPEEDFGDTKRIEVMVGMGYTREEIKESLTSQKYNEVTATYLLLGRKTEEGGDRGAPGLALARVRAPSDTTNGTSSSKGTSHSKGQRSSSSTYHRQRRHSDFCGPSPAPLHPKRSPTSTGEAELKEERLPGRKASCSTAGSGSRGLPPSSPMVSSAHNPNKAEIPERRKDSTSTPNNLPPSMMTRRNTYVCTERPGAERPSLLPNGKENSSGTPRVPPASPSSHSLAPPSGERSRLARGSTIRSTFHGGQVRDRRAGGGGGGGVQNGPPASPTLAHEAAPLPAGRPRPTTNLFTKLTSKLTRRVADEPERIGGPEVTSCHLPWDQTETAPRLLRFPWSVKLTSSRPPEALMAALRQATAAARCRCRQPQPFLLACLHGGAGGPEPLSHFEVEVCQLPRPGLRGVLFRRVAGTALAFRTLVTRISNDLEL", "sequence of UniProt Q9H2X6 (whole entry, looked up)": "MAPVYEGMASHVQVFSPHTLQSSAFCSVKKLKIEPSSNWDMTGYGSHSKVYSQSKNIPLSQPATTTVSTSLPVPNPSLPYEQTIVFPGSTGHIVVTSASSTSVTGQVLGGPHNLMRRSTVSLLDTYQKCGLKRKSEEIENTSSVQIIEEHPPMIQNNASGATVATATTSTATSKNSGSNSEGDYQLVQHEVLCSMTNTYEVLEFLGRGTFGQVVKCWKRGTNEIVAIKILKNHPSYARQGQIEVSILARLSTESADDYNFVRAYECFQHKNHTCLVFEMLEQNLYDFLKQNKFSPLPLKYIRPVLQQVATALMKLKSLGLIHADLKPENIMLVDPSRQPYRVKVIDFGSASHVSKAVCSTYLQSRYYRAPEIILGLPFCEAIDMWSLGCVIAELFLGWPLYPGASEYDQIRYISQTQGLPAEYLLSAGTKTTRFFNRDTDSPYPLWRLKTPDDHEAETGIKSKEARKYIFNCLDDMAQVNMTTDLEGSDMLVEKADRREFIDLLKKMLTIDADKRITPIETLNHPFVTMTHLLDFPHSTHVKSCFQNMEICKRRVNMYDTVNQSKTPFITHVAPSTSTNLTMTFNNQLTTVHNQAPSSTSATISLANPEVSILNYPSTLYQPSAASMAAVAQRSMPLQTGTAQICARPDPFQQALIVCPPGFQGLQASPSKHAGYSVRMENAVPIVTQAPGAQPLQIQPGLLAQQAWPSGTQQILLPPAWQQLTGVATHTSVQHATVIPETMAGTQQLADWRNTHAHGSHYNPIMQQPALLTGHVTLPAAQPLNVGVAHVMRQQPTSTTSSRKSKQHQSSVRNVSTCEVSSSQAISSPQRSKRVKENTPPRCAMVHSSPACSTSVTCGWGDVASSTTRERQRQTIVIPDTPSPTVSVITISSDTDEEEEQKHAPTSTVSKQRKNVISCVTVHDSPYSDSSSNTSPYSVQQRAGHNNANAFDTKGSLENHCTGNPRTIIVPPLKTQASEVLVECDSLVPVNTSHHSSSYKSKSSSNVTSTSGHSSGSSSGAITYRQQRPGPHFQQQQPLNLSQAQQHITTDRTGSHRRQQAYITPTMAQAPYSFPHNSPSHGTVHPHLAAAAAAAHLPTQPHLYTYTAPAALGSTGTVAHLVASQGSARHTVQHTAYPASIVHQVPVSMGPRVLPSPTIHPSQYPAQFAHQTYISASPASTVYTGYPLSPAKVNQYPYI", "sequence of UniProt Q86Y07 (whole entry, looked up)": "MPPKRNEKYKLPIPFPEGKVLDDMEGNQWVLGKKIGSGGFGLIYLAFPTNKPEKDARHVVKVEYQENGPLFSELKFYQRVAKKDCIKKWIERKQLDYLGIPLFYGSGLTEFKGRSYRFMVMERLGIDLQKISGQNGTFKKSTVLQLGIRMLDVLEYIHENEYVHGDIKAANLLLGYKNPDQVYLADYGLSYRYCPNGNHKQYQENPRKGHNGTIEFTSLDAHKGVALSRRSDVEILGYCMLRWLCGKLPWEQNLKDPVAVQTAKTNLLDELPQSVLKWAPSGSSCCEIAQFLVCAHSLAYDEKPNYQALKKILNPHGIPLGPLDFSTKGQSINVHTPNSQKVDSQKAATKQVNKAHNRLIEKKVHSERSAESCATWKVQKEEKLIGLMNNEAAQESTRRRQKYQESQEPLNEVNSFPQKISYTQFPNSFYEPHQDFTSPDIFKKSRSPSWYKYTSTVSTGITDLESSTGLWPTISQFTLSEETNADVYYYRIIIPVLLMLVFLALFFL", "sequence of UniProt P78368 (whole entry, looked up)": "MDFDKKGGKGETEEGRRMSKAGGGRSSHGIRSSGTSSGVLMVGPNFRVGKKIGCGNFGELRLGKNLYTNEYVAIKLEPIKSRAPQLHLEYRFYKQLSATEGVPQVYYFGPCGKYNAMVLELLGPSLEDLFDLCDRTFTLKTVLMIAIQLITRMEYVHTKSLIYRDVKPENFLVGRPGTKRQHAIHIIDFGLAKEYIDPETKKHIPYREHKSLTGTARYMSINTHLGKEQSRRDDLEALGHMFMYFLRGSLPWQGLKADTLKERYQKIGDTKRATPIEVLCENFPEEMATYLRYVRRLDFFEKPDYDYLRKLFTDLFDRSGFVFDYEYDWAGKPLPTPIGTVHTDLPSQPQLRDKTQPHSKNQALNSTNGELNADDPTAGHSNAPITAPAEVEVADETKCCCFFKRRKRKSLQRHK"}
{"data": "Study 1", "target": "Interleukin-1 receptor-associated kinase 1 (IRAK1, Homo sapiens, UniProt P51617)", "read-out": "enzyme activity", "mode": "inhibitor", "concentration": "0.5 µM", "reference": "control", "sequence of UniProt P51617 (whole entry, looked up)": "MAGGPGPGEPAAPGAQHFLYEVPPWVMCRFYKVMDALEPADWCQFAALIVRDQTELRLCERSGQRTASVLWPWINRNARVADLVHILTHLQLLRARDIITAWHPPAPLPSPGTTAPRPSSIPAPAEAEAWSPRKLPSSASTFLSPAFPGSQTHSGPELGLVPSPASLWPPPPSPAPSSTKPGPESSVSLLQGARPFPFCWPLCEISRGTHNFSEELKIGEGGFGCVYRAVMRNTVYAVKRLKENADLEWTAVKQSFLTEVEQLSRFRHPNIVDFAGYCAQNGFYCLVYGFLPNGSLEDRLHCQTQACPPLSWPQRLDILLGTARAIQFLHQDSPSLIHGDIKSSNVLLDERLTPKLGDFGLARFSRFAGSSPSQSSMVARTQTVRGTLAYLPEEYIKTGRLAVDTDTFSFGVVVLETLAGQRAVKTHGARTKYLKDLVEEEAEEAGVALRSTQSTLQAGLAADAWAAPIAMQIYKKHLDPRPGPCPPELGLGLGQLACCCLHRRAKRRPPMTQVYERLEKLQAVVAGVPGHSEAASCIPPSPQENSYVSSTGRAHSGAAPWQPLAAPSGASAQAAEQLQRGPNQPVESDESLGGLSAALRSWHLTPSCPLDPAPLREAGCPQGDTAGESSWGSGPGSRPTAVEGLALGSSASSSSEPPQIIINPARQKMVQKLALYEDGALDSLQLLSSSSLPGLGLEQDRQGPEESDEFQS"}
{"SMILES": "Oc1ccc(Nc2nc(-c3ccc(Cl)cc3)cs2)cc1", "remaining activity": "123%"}
{"SMILES": "CC(C)(C)n1nc(Cc2cccc3ccccc23)c2c(N)ncnc21", "remaining activity": "87%"}
{"SMILES": "NC(=O)c1ccc(N(C(N)=O)c2c(F)cccc2F)nc1-c1ccc(F)cc1F", "remaining activity": "94.2%"}
{"SMILES": "CSc1nc(-c2ccnc(N[C@@H](C)c3ccccc3)c2)c(-c2ccc(F)cc2)[nH]1 (racemic)", "remaining activity": "103%"}
{"SMILES": "Nc1nc(Nc2ccc(S(N)(=O)=O)cc2)nn1C(=O)c1c(F)cccc1F", "remaining activity": "89.8%"}
{"SMILES": "CC(=O)c1ccc(N2CCOCC2)cc1O", "remaining activity": "111%"}
{"SMILES": "Nc1nccc(-c2c(-c3ccc(F)cc3)ncn2C2CCNCC2)n1", "remaining activity": "114%"}
{"SMILES": "Cc1cncc2cccc(S(=O)(=O)N3CCCN(C(=O)CN)C[C@@H]3C)c12", "remaining activity": "135%"}
{"SMILES": "O=C1NC(=O)C(c2c[nH]c3ccccc23)=C1c1c[nH]c2ccccc12", "remaining activity": "89.6%"}
{"SMILES": "O=S(=O)(NCCNC/C=C/c1ccc(Br)cc1)c1cccc2cnccc12", "remaining activity": "95.7%"}
{"SMILES": "CCCC(=O)Oc1ccc2[nH]c(C(=O)c3cc4ccccc4[nH]3)cc2c1", "remaining activity": "90.5%"}
{"SMILES": "CC#CC(=O)Nc1cc2c(Nc3ccc(F)c(Cl)c3)ncnc2cn1", "remaining activity": "104%"}
{"SMILES": "Cc1ccc(NC2=CC(=O)c3sc(C)nc3C2=O)cc1", "remaining activity": "108%"}
{"SMILES": "Fc1ccc(-c2nc3n(c2-c2ccncc2)CCS3)cc1", "remaining activity": "125%"}
{"SMILES": "CCc1[nH]c(-c2ccc(OC)cc2)nc1-c1ccncc1", "remaining activity": "128%"}
{"SMILES": "O=C1Cc2c([nH]c3ccc([N+](=O)[O-])cc23)-c2ccccc2N1", "remaining activity": "93.1%"}
{"SMILES": "N#CC(=C(N)Sc1ccc(N)cc1)c1ccccc1C(F)(F)F", "remaining activity": "100%"}
{"SMILES": "Nc1ncnc2c1cnn2-c1ccccc1", "remaining activity": "85.8%"}
{"SMILES": "COc1cc(Nc2c(C#N)cnc3cc(OCCCN4CCN(C)CC4)c(OC)cc23)c(Cl)cc1Cl", "remaining activity": "91.3%"}
{"SMILES": "Cc1cc(Nc2nc(-c3ccccc3)nc3ccccc23)n[nH]1", "remaining activity": "79.3%"}
{"SMILES": "COc1ccc(S(=O)(=O)N(CCO)c2ccccc2CN(C)CC=Cc2ccc(Cl)cc2)cc1", "remaining activity": "98%"}
{"SMILES": "CC[n+]1c(/C=C/N(C)c2ccccc2)n(-c2ccccc2)c2ccc(-c3nc4ccccc4s3)cc21", "remaining activity": "102%"}
{"data": "Study 2", "Structure (SMILES)": "CS(=O)(=O)c1cc(C2(NC(=O)c3cncc4c3cnn4-c3ccc(F)cc3)CC2)ccn1", "read-out": "cell-free assay", "technique": "competition with immobilised ligand", "concentration": "1 µM"}
{"target": "DSTYK (Homo sapiens, UniProt Q6XUX3)", "remaining binding": "70%"}
{"target": "RIOK3 (Homo sapiens, UniProt O14730)", "remaining binding": "100%"}
{"target": "NEK7 (Homo sapiens, UniProt Q8TDX7)", "remaining binding": "100%"}
{"target": "EPHA5 (Homo sapiens, UniProt P54756)", "remaining binding": "100%"}
{"target": "HIPK2 (Homo sapiens, UniProt Q9H2X6)", "remaining binding": "100%"}
{"target": "LATS1 (Homo sapiens, UniProt O95835)", "remaining binding": "98%"}
{"target": "ULK1 (Homo sapiens, UniProt O75385)", "remaining binding": "100%"}
{"target": "PRKD2 (Homo sapiens, UniProt Q9BZL6)", "remaining binding": "97%"}
{"target": "PRKACA (Homo sapiens, UniProt P17612)", "remaining binding": "100%"}
{"target": "CSNK1G2 (Homo sapiens, UniProt P78368)", "remaining binding": "100%"}
{"target": "PIK3C3 (Homo sapiens, UniProt Q8NEB9)", "remaining binding": "86%"}
{"target": "Ribosomal protein S6 kinase alpha-5, C-terminal kinase domain (RPS6KA5, Homo sapiens, UniProt O75582)", "remaining binding": "61%"}
{"target": "RET (Homo sapiens, UniProt P07949, M918T)", "remaining binding": "100%"}
{"target": "VRK2 (Homo sapiens, UniProt Q86Y07)", "remaining binding": "100%"}
{"target": "MARK4 (Homo sapiens, UniProt Q96L34)", "remaining binding": "100%"}
{"data": "Study 3", "SMILES": "CCC[C@H]1NC(=O)[C@H](Cc2cc(Cl)ccc2-c2cnn(C)c2)N(C)C(=O)[C@H](CC(C)C)NC(=O)[C@@H](N(C)C(=O)[C@H](CCCCN2CCOCC2)NC(=O)[C@@H](c2cccnc2)C2CCCCC2)CCCCNC1=O", "cell line": "NCI-H446", "time": "5 days", "reference": "DMSO"}
{"technique": "Vi-Cell counting", "concentration": "10 µM", "added": "Myt1 inhibitor 1000 nM", "cell growth": "6.62% and 7.56%"}
{"technique": "cell counting", "concentration": "1.52 nM", "cell growth": "73.4% and 82%"}
{"technique": "Vi-Cell counting", "concentration": "4.57 nM", "added": "Myt1 inhibitor 1000 nM", "cell growth": "63.5% and 60.7%"}
{"technique": "cell counting", "concentration": "41.1 nM", "cell growth": "89.2% and 96%"}
{"technique": "cell counting", "concentration": "13.7 nM", "cell growth": "87.4% and 93.1%"}
{"technique": "Vi-Cell counting", "concentration": "371 nM", "added": "Myt1 inhibitor 1000 nM", "cell growth": "42.6% and 52.2%"}
{"technique": "cell counting", "concentration": "3.33 µM", "cell growth": "72.1% and 69.1%"}
{"technique": "cell counting", "concentration": "511 pM", "cell growth": "95.4%"}
{"data": "Study 4", "host": "mouse", "matrix": "microsomes or S9", "concentration": "2 µM", "time": "0.5 h"}
{"SMILES": "CCC(C)(CNC(=O)c1sc(-c2c(C)noc2C)nc1C)OC (centres unmarked)", "remaining compound [%]": 41.7}
{"SMILES": "CCC(CC)C1CC(NC(=O)Nc2c(C)ccn(C)c2=O)CCO1 (centres unmarked)", "remaining compound [%]": 46.5}
{"SMILES": "C[S+]([O-])c1nn(-c2ccc(Cl)c(Cl)c2)c(-c2ccc(Cl)c(Cl)c2)c1-n1ccnc1 (centres unmarked)", "remaining compound [%]": 3.48}
{"SMILES": "COC(=O)c1c(C(=O)OC)c(-c2ccc(N)cc2)n2c1CCC2", "remaining compound [%]": 11.4}
{"SMILES": "CC(=O)COc1cc(N2C(=O)C(C)=C(C)C2=O)c(F)cc1Cl", "remaining compound [%]": 17.6}
{"SMILES": "COC(=O)c1cc(Cl)c(NC(=O)c2cc(OC)c(OC)c(OC)c2)cc1OC", "remaining compound [%]": 49.7}
{"SMILES": "COCc1nc2cc(-c3ccccc3CO)ccc2o1", "remaining compound [%]": 0.565}
{"SMILES": "O=C(c1ccc2[nH]cnc2c1)N1CCc2nc3cc(-c4ccccc4Cl)[nH]n3c(=O)c2C1", "remaining compound [%]": 72.8}
{"SMILES": "Cc1cc2nnc(SC3CC(C)OC3=O)n2c(C)n1 (centres unmarked)", "remaining compound [%]": 30}
{"SMILES": "Cc1nn(-c2ccccn2)c2c1-c1oncc1CC2", "remaining compound [%]": 1.15}
{"SMILES": "Cc1ncn(-c2cc(NCCNC(=O)C(C)(C)C)ncn2)c1C", "remaining compound [%]": 60.4}
{"SMILES": "Cc1n[nH]c(O)c1C(c1ccc(F)cc1)c1c(C)n[nH]c1O", "remaining compound [%]": 62.3}
{"SMILES": "NC(N)=NC(=O)c1coc(-c2cc(F)cc(F)c2)c1", "remaining compound [%]": 74.6}
{"SMILES": "CCCCN(C)C(=O)CSc1nnc2c3cc(-c4cc(C)ccc4C)nn3ccn12", "remaining compound [%]": 80.2}
{"SMILES": "CC(=O)c1c(C)n(S(=O)(=O)c2ccc(C)cc2)c2ccc(NS(=O)(=O)c3ccc(C)cc3)cc12", "remaining compound [%]": 3.33}
{"SMILES": "CC(C)Oc1cc(N2C=NN(C)CC2)ccc1[N+](=O)[O-]", "remaining compound [%]": 0.106}
{"SMILES": "CCNC(=O)C(C)N(c1ccccc1)S(C)(=O)=O (centres unmarked)", "remaining compound [%]": 79.4}
{"SMILES": "CC1CN(C)C(c2ccccc2)C(C)C12NC(=O)N=C2O (centres unmarked)", "remaining compound [%]": 58.1}
{"SMILES": "O=C(Nc1ccc(N2CCCS2(=O)=O)cc1)c1cc(C2CC2)nc2ccccc12", "remaining compound [%]": 83.9}
{"SMILES": "COC(=O)C1=C(\\N2CCOCC2)CCCC/C=C\\1C(=O)OC", "remaining compound [%]": 5.33}
{"SMILES": "CC(C)(C)OC(=O)c1ccc(-c2c[nH]c(-c3ccc(S(C)(=O)=O)c(F)c3)n2)cc1", "remaining compound [%]": 70.6}
{"SMILES": "O=C(c1ccc2ncccc2c1)c1cncc(Br)c1Cl", "remaining compound [%]": 0}
{"SMILES": "C[C@H]1CCCC(=O)CCC/C=C/c2cc(OCc3ccc(Cl)c(Cl)c3)cc(OCc3ccc(Cl)c(Cl)c3)c2C(=O)O1", "remaining compound [%]": 45.7}
{"note": "For quick reference, copied from above (study 1):"}
{"SMILES": "CC#CC(=O)Nc1cc2c(Nc3ccc(F)c(Cl)c3)ncnc2cn1", "remaining activity": "104%"}
{"SMILES": "Oc1ccc(Nc2nc(-c3ccc(Cl)cc3)cs2)cc1", "remaining activity": "123%"}
{"SMILES": "Cc1cc(Nc2nc(-c3ccccc3)nc3ccccc23)n[nH]1", "remaining activity": "79.3%"}
{"SMILES": "COc1ccc(S(=O)(=O)N(CCO)c2ccccc2CN(C)CC=Cc2ccc(Cl)cc2)cc1", "remaining activity": "98%"}
{"SMILES": "CC(C)(C)n1nc(Cc2cccc3ccccc23)c2c(N)ncnc21", "remaining activity": "87%"}
{"SMILES": "CC(=O)c1ccc(N2CCOCC2)cc1O", "remaining activity": "111%"}
{"SMILES": "O=S(=O)(NCCNC/C=C/c1ccc(Br)cc1)c1cccc2cnccc12", "remaining activity": "95.7%"}
{"SMILES": "N#CC(=C(N)Sc1ccc(N)cc1)c1ccccc1C(F)(F)F", "remaining activity": "100%"}
